Experimental data from different studies.
± marks the error that the study gave.

`COc1cc(Nc2ccnc3cc(C#N)ccc23)cc(OC)c1OC` — result for “IC50 fold change”: > 10 fold (human COQ8A N-terminal truncated F495L; ATPase activity; reference: F495L over wild type).
The inhibition of `CC(Oc1cc(-c2ccccn2)nc2ccccc12)C(=O)N(C)c1ccccc1` (racemic) is reported as < 50% (human receptor and transporter panel; specific binding, radioligand binding screen; 10 µM, all targets except 5-HT1A).
For `CCCCC(C(=O)Nc1ccc(Br)cc1)n1nc(C)cc(Cc2cccc(OC)c2)c1=O` (racemic), the EC50 was 60 nM (human formyl peptide receptors; calcium mobilization, agonist; human neutrophils).
`O=C(CCCCCCC(=O)Nc1ccc(-c2c3ccc(=O)cc-3oc3cc(O)ccc23)c(C(=O)O)c1)NO` has a Kd ratio of 150 fold (HDAC6 H651V (human); binding, fluorescence anisotropy; reference: H651V mutant over wild type, higher = weaker binding).
The selectivity ratio of `COC(=O)C1(c2ccccc2)C=C(C(=O)OC(C)(C)C)C(=O)CC1` (centres unmarked) is reported as > 10 fold (p38α MAPK human; reference: Ki JNK1 over Ki p38α).
`COc1cc(C(=O)N2CCC(N3CCN(C)CC3)CC2)ccc1Nc1ncc2c(n1)N(C1CCC1)c1ccccc1C(=O)N2C` has an EC50 of 19 ± 5 nM (ERK5, human; autophosphorylation; HeLa; together with: EGF).
`COc1cccc(Cc2cc(C)nn(C(C)(C)C(=O)Nc3ccc(Br)cc3)c2=O)c1` has an EC50 of 4700 nM (human formyl peptide receptors; calcium mobilization, agonist; human neutrophils).
`CCC(NC(=O)[C@@H](NC(=O)[C@@H](NC(=O)CNC(=O)[C@H](CCCNC(=N)N)NC(=O)[C@H](Cc1ccc(O)cc1)NS(=O)(=O)c1cccc2c(N(C)C)cccc12)[C@@H](C)CC)[C@@H](C)O)B(O)O` (some centres unmarked) gave a StAR remaining of 83% (Lon protease (rat); protein degradation, import pulse-chase, measured: radiolabelled StAR; isolated rat liver mitochondria; 10 µM, 120 min chase, 30 °C).
`NCc1cccc(C2CCN(C(=O)c3cccc(NC(=O)C(O)C4(O)CCC4)c3)CC2)c1` (racemic) gave an IC50 of 137000 nM (tryptase, human; enzyme activity, inhibitor; HMC-1, supernatant after degranulation; 2 h, together with: 1 µM A23187 for 1 h).
Under Met-14-3-3γ level, `Nc1ccc(Cl)c2cccnc12` is recorded as “no effect” (methionine aminopeptidase; immunoblot; HUVEC; up to 10 µM).
Under kallikrein activity, `CN(C)c1cccc(Oc2cnc(Nc3ccccc3)nc2)c1` is recorded as “decreased” (factor XII contact system, human; inhibitor, chromogenic substrate S-2302; 40 µM, together with: amyloid-beta 42 oligomers 1 µM).
For `CCOc1cc(C(=O)N2CCC(N3CCN(C)CC3)CC2)ccc1Nc1ncc2c(n1)N(C(C)C)c1ccccc1C(=O)N2C`, the EC50 was 25 ± 7 nM (ERK5, human; autophosphorylation; HeLa; together with: EGF).
With `O=C(NCc1nnc2n1CCN(Cc1cc3ccccc3[nH]1)CC2)C1CCOC1` (centres unmarked) the EC50 was 1280 nM (4-1BB human; reporter gene, cell-based reporter).
`C/C=C/Cn1c(Cc2cc(OC)c(OC)c(OC)c2)nc2c(N)ncnc21` gave a Ki of 1500 ± 20 nM (Hsp90α; binding, fluorescence polarization competition; together with: Cy3B-geldanamycin tracer).
With `COc1cccc(Cc2cc(C)nn(C(C(=O)Nc3ccc(Br)cc3)c3ccccc3)c2=O)c1` (racemic) the EC50 was 4300 nM (human formyl peptide receptors; calcium mobilization, agonist; human neutrophils).
With `COc1cc(C(=O)N2CCC(N3CCN(C)CC3)CC2)ccc1Nc1ncc2c(n1)N(C(C)C)c1ccccc1C(=O)N2C` the EC50 was 14 ± 4 nM (ERK5, human; autophosphorylation; HeLa; together with: EGF).
`O=C(NNC(=S)Nc1cccc(C(F)(F)F)c1)c1cccn1-c1ccc(F)cc1` has an IC50 of 1300 nM (glucocorticoid receptor; reporter gene, antagonist; MDA-kb2; 20 h, together with: dexamethasone 10 nM).

For quick reference, copied from above:
With `COc1cccc(Cc2cc(C)nn(C(C(=O)Nc3ccc(Br)cc3)c3ccccc3)c2=O)c1` (racemic) the EC50 was 4300 nM (human formyl peptide receptors; calcium mobilization, agonist; human neutrophils).
`COc1cccc(Cc2cc(C)nn(C(C)(C)C(=O)Nc3ccc(Br)cc3)c2=O)c1` has an EC50 of 4700 nM (human formyl peptide receptors; calcium mobilization, agonist; human neutrophils).
